Published values from different studies.
Numbered parts are unrelated; each lists some results of a single study. Substitutions count along the parent as printed.

Block 1 — method: DHFR PCA, deep sequencing; sample: yeast; added: (+)-ABA 0 µM; baseline: wild-type fitted maximum; direction: higher = stronger binding
Target: ABI1, truncated, D143A, DHFR fusion (Arabidopsis thaliana)
Notes: methotrexate growth selection, single substitutions
Starting sequence: PYL1, truncated, DHFR fusion (Arabidopsis thaliana); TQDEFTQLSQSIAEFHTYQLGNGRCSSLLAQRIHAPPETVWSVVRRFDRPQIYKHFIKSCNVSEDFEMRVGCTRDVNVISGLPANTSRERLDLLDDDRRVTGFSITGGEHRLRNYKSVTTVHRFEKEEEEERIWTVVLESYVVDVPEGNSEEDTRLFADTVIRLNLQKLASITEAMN
Change | relative binding score [%]
T6Y | 37.3
P37M | 1.71
T119D | -2.74
N77H | 51.6
P37D | 2.28
N149A | 54.6

Block 2 — method: competition protein-binding microarray; molecule type: double-stranded DNA, one strand shown; sample: in vitro; tested at: 2 µM; added: Pho4 competitor, 0.05 µM; direction: higher = stronger binding; constant ends, left off below: … GTCTTGATTCGCTTGACGCTGCTG
Target: Centromere-binding protein 1, full length, His-tagged (CBF1, Saccharomyces cerevisiae, UniProt P17106, residues 1-351)
UniProt P17106, sequence (whole entry, looked up): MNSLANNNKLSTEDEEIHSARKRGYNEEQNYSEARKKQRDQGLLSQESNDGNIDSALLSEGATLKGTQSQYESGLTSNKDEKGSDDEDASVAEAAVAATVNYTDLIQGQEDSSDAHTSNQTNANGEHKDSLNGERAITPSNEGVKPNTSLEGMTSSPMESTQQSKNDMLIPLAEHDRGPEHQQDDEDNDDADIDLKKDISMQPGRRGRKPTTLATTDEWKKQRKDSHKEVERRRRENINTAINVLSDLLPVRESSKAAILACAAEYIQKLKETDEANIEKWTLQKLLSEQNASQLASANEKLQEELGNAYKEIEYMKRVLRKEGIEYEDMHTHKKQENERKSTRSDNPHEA
Notes: whole 60-bp probe, lowest competitor level
Oligonucleotide | fluorescence intensity [a.u.]
TCTGTATGGGTTTGTCATGCTGCTCTGGTCCCTTAT | 72.4
GTTACCAATTTGAGACTTGTAATATGGTTGGTTACC | 76.4
AAATTACTAAGTTGAGCTGTGGGTGACGCCGTATGA | 68.4
CTGTAGACTCAGAGTCAGCTGATTGTTGGGTATGTG | 370
GGTAGCGATTTCCATCACGTGACTCGTTTTTATTCC | 27300
GCGTTATCTCTATTAGACGTGCTTTTCAAGAATTGT | 88.9
CTTCTGTAAATTTGTTGGGTGGGTGGACGCGCCCCG | 81.2
TGCGCAACAACTTGGCGGGTGGGTGTATGTCTAGAA | 62.2
CATACCCAACCTTGCTCAGTGGGTGAAGATATTTGT | 74.2

Block 3 — method: aptamer microarray, sandwich; molecule type: DNA with 2'F-ANA; sample: in vitro; tested at: 200 nM; added: Cy3 exosite-II aptamer, 400 nM; direction: higher = stronger binding; oligonucleotide: GGTTGGTGTGGTTGG
Target: Prothrombin, mature alpha-thrombin (F2, Homo sapiens, UniProt P00734)
Notes: whole 15-mer aptamer, many near background
Modification | mean fluorescence intensity [a.u.]
2'F-ANA at 2 5 8 9 12 13 14 15 | 47.6
2'F-ANA at 3 6 7 8 11 12 15 | 1080
2'F-ANA at 5 9 14 | 45.9
2'F-ANA at 4 11 12 13 14 15 | 103
2'F-ANA at 1 2 3 6 7 8 9 14 15 | 72.1
2'F-ANA at 3 4 8 9 | 868
2'F-ANA at 2 7 9 11 13 | 336
2'F-ANA at 2 5 8 9 10 15 | 49.3
2'F-ANA at 1 4 7 8 10 11 12 13 | 54.4

Other studies, line by line
Substance | target | test | test system | conditions | scale | measurement | result
PhoQ, residues 284 288 289 292 302 303 NLCILV | PhoP, residues 12 14 15 18 19 NYFTV (Escherichia coli, UniProt P23836) | Sort-seq, item: YFP reporter | E. coli | PhoQ-PhoP variant library, added: 10 µM Mg2+ | baseline: high Mg2+ state, higher = stronger signaling | fold induction | 9.09

A few entries again (block 3):
Modification | mean fluorescence intensity [a.u.]
2'F-ANA at 1 2 3 6 7 8 9 14 15 | 72.1
2'F-ANA at 3 4 8 9 | 868
2'F-ANA at 2 7 9 11 13 | 336
2'F-ANA at 2 5 8 9 10 15 | 49.3
